# Assay results collected from several papers.
# Numbered parts are unrelated; each lists some results of a single study. “And” joins repeats or separate records; there may be more than shown.
# Chain of UniProt P10721 (whole entry, unmodified, looked up): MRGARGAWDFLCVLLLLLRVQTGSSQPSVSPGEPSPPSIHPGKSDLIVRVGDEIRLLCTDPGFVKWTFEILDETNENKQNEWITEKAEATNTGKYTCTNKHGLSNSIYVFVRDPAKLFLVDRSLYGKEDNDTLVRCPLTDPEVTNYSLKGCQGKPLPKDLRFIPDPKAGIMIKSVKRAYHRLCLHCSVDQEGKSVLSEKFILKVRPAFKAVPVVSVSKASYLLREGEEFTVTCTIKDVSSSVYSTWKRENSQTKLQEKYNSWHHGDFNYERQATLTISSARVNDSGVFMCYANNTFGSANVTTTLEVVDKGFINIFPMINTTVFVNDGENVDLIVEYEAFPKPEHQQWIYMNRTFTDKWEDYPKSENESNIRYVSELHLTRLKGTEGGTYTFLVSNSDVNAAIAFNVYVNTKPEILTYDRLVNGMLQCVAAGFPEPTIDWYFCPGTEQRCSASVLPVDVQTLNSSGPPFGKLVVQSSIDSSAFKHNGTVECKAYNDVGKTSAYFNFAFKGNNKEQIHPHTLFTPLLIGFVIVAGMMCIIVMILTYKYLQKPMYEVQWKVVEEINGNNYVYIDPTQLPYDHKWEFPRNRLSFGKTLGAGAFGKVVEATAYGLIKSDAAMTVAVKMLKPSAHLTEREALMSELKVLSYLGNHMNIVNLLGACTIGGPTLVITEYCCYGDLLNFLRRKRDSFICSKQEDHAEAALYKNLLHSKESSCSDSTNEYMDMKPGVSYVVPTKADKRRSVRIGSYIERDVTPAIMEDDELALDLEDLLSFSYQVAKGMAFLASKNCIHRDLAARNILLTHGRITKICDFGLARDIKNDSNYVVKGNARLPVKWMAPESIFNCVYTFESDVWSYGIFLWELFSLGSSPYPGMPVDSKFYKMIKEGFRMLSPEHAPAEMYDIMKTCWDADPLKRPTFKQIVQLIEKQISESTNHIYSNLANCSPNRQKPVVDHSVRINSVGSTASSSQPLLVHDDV
# Chain of UniProt P54764 (whole entry, looked up): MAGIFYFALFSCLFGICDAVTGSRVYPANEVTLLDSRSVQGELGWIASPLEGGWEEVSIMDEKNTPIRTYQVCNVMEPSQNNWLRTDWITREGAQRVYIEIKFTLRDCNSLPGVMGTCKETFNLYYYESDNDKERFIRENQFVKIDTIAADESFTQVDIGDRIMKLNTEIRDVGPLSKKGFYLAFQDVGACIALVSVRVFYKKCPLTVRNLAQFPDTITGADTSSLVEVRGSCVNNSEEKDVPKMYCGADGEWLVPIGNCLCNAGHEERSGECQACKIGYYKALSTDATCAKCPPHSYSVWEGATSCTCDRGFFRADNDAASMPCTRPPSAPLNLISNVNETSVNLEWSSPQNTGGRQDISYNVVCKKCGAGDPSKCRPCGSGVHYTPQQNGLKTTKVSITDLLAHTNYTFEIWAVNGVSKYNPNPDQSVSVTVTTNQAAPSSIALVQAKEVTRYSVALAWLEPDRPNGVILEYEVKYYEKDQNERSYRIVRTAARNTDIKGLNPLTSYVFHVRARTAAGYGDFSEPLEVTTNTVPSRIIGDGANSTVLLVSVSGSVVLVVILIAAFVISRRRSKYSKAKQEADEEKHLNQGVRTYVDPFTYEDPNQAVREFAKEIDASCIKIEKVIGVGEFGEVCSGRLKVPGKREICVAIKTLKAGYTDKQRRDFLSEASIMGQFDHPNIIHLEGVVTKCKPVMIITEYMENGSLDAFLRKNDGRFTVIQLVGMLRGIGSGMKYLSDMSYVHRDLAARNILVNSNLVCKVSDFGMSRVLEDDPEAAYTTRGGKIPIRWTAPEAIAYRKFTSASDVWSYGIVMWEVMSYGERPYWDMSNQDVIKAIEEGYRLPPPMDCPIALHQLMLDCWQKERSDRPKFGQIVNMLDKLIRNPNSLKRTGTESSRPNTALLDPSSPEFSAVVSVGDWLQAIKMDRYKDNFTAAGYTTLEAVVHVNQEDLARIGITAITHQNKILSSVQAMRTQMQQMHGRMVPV
# Chain of UniProt Q9H4A3 (whole entry, looked up): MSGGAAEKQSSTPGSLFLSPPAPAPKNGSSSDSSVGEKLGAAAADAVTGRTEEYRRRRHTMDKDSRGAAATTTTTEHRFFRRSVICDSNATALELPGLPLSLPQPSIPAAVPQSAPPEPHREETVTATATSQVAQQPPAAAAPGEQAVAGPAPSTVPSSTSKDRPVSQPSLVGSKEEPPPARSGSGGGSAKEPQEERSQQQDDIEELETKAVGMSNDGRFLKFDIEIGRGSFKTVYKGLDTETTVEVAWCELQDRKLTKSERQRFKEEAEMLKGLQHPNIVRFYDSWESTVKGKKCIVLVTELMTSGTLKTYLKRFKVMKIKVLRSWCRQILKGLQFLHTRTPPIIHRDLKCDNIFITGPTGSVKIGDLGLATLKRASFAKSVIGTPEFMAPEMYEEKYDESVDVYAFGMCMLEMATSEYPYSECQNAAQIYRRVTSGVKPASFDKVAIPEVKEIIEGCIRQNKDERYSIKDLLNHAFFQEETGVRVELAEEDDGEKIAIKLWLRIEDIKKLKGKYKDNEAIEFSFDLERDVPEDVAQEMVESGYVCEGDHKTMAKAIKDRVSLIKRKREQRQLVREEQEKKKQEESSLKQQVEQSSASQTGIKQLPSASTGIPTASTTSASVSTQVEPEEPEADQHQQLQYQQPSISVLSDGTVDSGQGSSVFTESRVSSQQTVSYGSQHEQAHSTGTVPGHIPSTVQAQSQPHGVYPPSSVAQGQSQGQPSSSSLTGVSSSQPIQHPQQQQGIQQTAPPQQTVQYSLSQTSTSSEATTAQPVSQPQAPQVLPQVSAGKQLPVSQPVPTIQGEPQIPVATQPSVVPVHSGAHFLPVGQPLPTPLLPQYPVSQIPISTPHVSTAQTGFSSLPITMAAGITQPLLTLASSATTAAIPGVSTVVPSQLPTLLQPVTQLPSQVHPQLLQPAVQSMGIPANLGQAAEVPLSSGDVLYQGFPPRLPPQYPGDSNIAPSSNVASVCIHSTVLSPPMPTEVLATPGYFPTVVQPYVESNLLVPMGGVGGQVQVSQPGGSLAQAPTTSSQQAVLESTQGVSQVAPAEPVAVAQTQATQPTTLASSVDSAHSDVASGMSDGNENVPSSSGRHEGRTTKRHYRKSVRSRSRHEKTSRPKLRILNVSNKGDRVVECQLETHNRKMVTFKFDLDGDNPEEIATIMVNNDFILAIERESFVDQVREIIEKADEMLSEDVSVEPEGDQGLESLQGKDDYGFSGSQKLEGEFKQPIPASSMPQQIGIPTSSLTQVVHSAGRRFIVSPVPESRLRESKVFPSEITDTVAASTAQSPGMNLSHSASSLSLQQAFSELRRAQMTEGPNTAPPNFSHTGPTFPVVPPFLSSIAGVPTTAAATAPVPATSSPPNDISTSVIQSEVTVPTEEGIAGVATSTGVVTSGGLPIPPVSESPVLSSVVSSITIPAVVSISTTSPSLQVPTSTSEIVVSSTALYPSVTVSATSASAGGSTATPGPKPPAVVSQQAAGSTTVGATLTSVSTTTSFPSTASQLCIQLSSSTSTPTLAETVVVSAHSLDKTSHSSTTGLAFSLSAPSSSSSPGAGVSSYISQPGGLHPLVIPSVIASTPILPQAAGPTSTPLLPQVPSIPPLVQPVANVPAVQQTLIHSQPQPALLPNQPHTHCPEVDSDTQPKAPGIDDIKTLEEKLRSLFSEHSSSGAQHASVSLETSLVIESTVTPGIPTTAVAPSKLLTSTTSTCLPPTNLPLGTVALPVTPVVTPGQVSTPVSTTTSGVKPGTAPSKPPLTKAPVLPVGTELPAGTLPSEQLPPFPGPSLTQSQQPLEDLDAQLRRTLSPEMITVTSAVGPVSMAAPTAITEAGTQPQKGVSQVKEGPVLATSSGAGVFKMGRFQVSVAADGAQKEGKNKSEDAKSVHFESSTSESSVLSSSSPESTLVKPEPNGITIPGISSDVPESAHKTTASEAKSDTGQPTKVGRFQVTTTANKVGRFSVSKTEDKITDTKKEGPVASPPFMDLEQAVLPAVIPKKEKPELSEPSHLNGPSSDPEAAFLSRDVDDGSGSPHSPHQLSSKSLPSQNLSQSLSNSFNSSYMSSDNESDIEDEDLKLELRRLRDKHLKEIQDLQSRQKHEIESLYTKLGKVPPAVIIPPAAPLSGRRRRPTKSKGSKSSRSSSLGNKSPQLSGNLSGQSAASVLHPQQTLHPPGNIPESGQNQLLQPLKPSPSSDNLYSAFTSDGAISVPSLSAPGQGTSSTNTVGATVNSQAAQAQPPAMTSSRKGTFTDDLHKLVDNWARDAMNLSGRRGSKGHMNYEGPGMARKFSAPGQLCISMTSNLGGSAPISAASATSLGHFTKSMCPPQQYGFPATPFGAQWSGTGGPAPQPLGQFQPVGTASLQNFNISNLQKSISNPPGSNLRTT

# Sample 1 — observed: enzyme activity; action: inhibitor; concentration: 0.5 µM; baseline: control
# Target: Tyrosine-protein kinase Yes (YES1, Homo sapiens, UniProt P07947)
# Chain of UniProt P07947 (whole entry, looked up): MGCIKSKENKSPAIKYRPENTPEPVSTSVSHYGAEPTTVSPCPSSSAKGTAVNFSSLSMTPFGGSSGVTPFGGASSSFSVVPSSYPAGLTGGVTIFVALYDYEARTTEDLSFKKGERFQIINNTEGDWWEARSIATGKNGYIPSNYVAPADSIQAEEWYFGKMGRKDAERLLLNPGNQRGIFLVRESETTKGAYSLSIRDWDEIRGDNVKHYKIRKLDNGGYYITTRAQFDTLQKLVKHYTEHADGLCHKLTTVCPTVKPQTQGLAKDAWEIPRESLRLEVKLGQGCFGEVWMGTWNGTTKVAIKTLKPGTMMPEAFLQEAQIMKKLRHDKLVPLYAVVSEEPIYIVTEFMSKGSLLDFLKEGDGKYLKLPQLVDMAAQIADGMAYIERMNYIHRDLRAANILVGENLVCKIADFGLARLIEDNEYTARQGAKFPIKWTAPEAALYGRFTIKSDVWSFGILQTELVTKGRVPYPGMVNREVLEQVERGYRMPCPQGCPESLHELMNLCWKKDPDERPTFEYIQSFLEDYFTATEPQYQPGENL
Structure (SMILES),remaining activity [%]
O=C(O)/C=C/c1cc(Br)c(Br)c(Br)c1Br,96.9
c1cc(-c2cnn3cc(-c4ccc(OCCN5CCCCC5)cc4)cnc23)ccn1,15.9
O=C1c2ccccc2-c2nc3nnnn3nc21,89.2
N#C/C(=C(/N)SC1C=CC=CC1)c1cccc(C(O)c2ccncc2)c1 (stereo not drawn),97.2
Nc1nc(Nc2ccc(S(N)(=O)=O)cc2)nn1C(=S)Nc1c(F)cccc1F,10.5
O=Nc1c(-c2c(O)[nH]c3ccccc23)[nH]c2ccccc12,45.1
N#CC(c1ccnc(NCCc2cccnc2)n1)c1nc2ccccc2s1 (stereo not drawn),89.1
CC(C)N(CCC(=O)c1ccc2ccccc2c1)Cc1ccccc1,100
CC(C)n1cnc2c(Nc3cccc(Cl)c3)nc(NCCO)nc21,33.7
COc1cc2c(N3CCN(C(=O)Nc4ccc(OC(C)C)cc4)CC3)ncnc2cc1OCCCN1CCCCC1,86.6
C[C@@H](N)[C@H]1CC[C@H](C(=O)Nc2ccncc2)CC1,98.3
Clc1ccc(Nc2nnc(Cc3ccncc3)c3ccccc23)cc1,93
O=C(c1ccccc1)c1ccc(N2CCOCC2)cc1O,103
NC(=O)c1cccc(-c2cc(Nc3ccc(OC(F)(F)F)cc3)ncn2)c1,87.4
O=c1c(-c2ccc(F)cc2)c(-c2ccncc2)[nH]n1-c1ccc(Cl)cc1,85.1
O=C1NC(=O)/C(=C/c2ccc3c(c2)OC(F)(F)O3)S1,87.9
CCCCc1c(-c2ccc(O)cc2)[nH]c2nccnc12,46.5
CCN(CC)CCCCN1c2ccccc2Oc2ccc(Cl)cc21,88.5
COc1cc2c(Nc3ccc(Br)cc3F)ncnc2cc1OCC1CCN(C)CC1,11.3
CC(C)(C)c1nc2c3cc[nH]c(=O)c3c3cc(F)ccc3c2[nH]1,76.1
CNc1cc2c(Nc3cccc(Br)c3)ncnc2cn1,74.7

# Sample 2 — technique: competition with immobilised ligand; concentration: 1 µM
# SMILES: O=C(O)c1cc(-c2ccc(C3CCNCC3)cc2)c2ccc(-c3ccc(C(F)(F)F)cc3)cc2c1
target,assay,remaining binding [%]
"Serine/threonine-protein kinase Nek2 (NEK2, Homo sapiens, UniProt P51955)",cell-free assay,100
"Tyrosine-protein kinase ABL1, phosphorylated (ABL1, Homo sapiens, UniProt P00519, H396P)",cell-free assay,86
"Homeodomain-interacting protein kinase 4 (HIPK4, Homo sapiens, UniProt Q8NE63)",cell-free assay,100
"Tyrosine-protein kinase ABL1, non-phosphorylated (ABL1, Homo sapiens, UniProt P00519, F317I)",binding,100
"Ephrin type-A receptor 4 (EPHA4, Homo sapiens, UniProt P54764)",cell-free assay,100
"Serine/threonine-protein kinase WNK1 (WNK1, Homo sapiens, UniProt Q9H4A3)",cell-free assay,100
"Myosin light chain kinase (MYLK3, Homo sapiens, UniProt Q32MK0)",cell-free assay,100
"Cyclin-dependent kinase-like 3 (CDKL3, Homo sapiens, UniProt Q8IVW4)",cell-free assay,94
"NT-3 growth factor receptor (NTRK3, Homo sapiens, UniProt Q16288)",cell-free assay,100
"Calcium/calmodulin-dependent protein kinase type 1D (CAMK1D, Homo sapiens, UniProt Q8IU85)",cell-free assay,100
"Serine/threonine-protein kinase BRSK2 (BRSK2, Homo sapiens, UniProt Q8IWQ3)",cell-free assay,100
"Serine/threonine-protein kinase MARK1 (MARK1, Homo sapiens, UniProt Q9P0L2)",cell-free assay,100
"Serine/threonine-protein kinase tousled-like 2 (TLK2, Homo sapiens, UniProt Q86UE8)",cell-free assay,100
"Cyclin-dependent kinase-like 2 (CDKL2, Homo sapiens, UniProt Q92772)",cell-free assay,100
"Serine/threonine-protein kinase Chk2 (CHEK2, Homo sapiens, UniProt O96017)",cell-free assay,100
"Atypical kinase COQ8A, mitochondrial (COQ8A, Homo sapiens, UniProt Q8NI60)",cell-free assay,100
"Mitogen-activated protein kinase kinase kinase 12 (MAP3K12, Homo sapiens, UniProt Q12852)",cell-free assay,100
"Calcium/calmodulin-dependent protein kinase type II subunit gamma (CAMK2G, Homo sapiens, UniProt Q13555)",cell-free assay,100
"Platelet-derived growth factor receptor alpha (PDGFRA, Homo sapiens, UniProt P16234)",cell-free assay,100
"Dual specificity testis-specific protein kinase 1 (TESK1, Homo sapiens, UniProt Q15569)",cell-free assay,100
"Mast/stem cell growth factor receptor Kit, autoinhibited (KIT, Homo sapiens, UniProt P10721)",cell-free assay,99
"Serine/threonine-protein kinase 32B (STK32B, Homo sapiens, UniProt Q9NY57)",cell-free assay,100
"Tyrosine-protein kinase FRK (FRK, Homo sapiens, UniProt P42685)",cell-free assay,100
"Phosphatidylinositol 4,5-bisphosphate 3-kinase catalytic subunit alpha isoform (PIK3CA, Homo sapiens, UniProt P42336, I800L)",cell-free assay,93
"Serine/threonine-protein kinase DCLK1 (DCLK1, Homo sapiens, UniProt O15075)",cell-free assay,84

# Sample 3 — Structure (SMILES): CCOc1ccc(Nc2c3c(nc4ccccc24)CCC3)cc1; organism: Leishmania donovani; technique: cidal or static mode; strain: DD8; matrix: promastigotes; concentration: concentration not given
setting,promastigote count
72 h,9.86e+06 and 9.76e+06
24 h,1.26e+06 and 1.27e+06
48 h,4.24e+06 and 4.35e+06

# Sample 4 — concentration: 1 µM
# Structure (SMILES): C=CC(=O)N1CCC([C@@H]2CCNc3c(C(N)=O)c(-c4ccc(Oc5ccccc5)cc4)nn32)CC1
target,assay,inhibition [%]
"Tyrosine-protein kinase Fyn (FYN, Homo sapiens, UniProt P06241)","enzyme activity, inhibitor",53
"Ankyrin repeat and protein kinase domain-containing protein 1 (ANKK1, Homo sapiens, UniProt Q8NFD2)",cell-free assay,0
"G protein-coupled receptor kinase 3 (GRK3, Homo sapiens, UniProt P35626)","enzyme activity, inhibitor",0
"Casein kinase II subunit alpha' (CSNK2A2, Homo sapiens, UniProt P19784)","enzyme activity, inhibitor",3
"Mitogen-activated protein kinase kinase kinase 5 (MAP3K5, Homo sapiens, UniProt Q99683)","enzyme activity, inhibitor",10
"Phosphatidylinositol 5-phosphate 4-kinase type-2 gamma (PIP4K2C, Homo sapiens, UniProt Q8TBX8)",inhibitor,0
"Serine/threonine-protein kinase Chk1 (CHEK1, Homo sapiens, UniProt O14757)","enzyme activity, inhibitor",21
"Serine/threonine-protein kinase 32C (STK32C, Homo sapiens, UniProt Q86UX6)","enzyme activity, inhibitor",2
"Mast/stem cell growth factor receptor Kit (KIT, Homo sapiens, UniProt P10721, V559D)","enzyme activity, inhibitor",1
"Insulin receptor-related protein (INSRR, Homo sapiens, UniProt P14616)",cell-free assay,8
"Mast/stem cell growth factor receptor Kit (KIT, Homo sapiens, UniProt P10721, D816V)","enzyme activity, inhibitor",12
